Published values from different studies.
Lines come from different studies, so protocols differ. Values after ≈ are worked out from the molar mass of the structure shown.
Organism: Staphylococcus aureus

CCCC[C@H](NC(=O)[C@@H](N)CCCN)C(=O)N[C@@H](CC1CCCCC1)C(=O)N[C@H](C(=O)N[C@H](Cc1ccccc1)C(=O)N[C@@H](Cc1cn(Cc2ccccc2)cn1)C(N)=O)[C@@H](C)CC  IC50 (bacterial growth; ATCC 29213): > 20 mg/L
CC(CCCOC(=O)CCC[N+](C)(C)C)C1CCC2C3CCC4CC(OC(=O)CCC[N+](C)(C)C)CCC4(C)C3CCC12C (stereo not shown)  inhibition zone (microbial growth, disc diffusion; ATCC29213; 125 µg/disc, 24 h): 15 mm
C[n+]1nn(CCCCCCCCCCN2C(=O)C=CC2=O)cc1COCCCCCCCCCCN1C(=O)C=CC1=O  IC50 (microbial growth, absorbance; 24 h): 36.1 µM
C=C(NC(=O)c1csc(-c2nc3c(cc2O)-c2nc(cs2)C(=O)NC(C(C)O)C(=O)NC(=C(C)OC)c2nc(cs2)C(=O)NC2c4nc(cs4)C(=O)NC(COC(=O)c4c5c6c(cccc6n4O)COC(=O)C(OC4CC(C)(O)C(N(C)C)C(C)O4)C2OC5)c2nc-3cs2)n1)C(N)=O (stereo not shown)  MIC50 (MRSA, 10 isolates; serum 75%): 0.0625 mg/L (≈ 0.0435 µM)
CCCCCCCC(=O)Oc1c(C)c(OC)c2c(c1C)OC(=O)[C@@H](CCCCCC)[C@]2(O)/C=C/c1ccccc1 (racemic)  MBC (microbial killing, broth dilution; ATCC25923): > 5000 mg/L
CC[C@H](C)[C@H](NC(=O)[C@H](CC1CCCCC1)NC(=O)[C@H](CC(C)C)NC(=O)[C@@H](N)CCCN)C(=O)N[C@H](Cc1ccccc1)C(=O)N[C@@H](Cc1cn(Cc2ccccc2)cn1)C(N)=O  IC50 (ATCC 33591, methicillin-resistant): > 20 mg/L
COc1c(C)c(OS(=O)(=O)c2ccccc2)c(C)c(OS(=O)(=O)c2ccccc2)c1C(=O)/C=C/c1ccccc1  MBC (microbial killing, broth dilution; ATCC25923): > 5000 mg/L
COc1ccc2cc3[n+](cc2c1OC)CCc1cc2c(cc1-3)OCO2.[Cl][Fe-]([Cl])([Cl])[Cl]  MBC (24 h, 37 °C): 400 µM
N=C(N)NCCC[C@@H]1NC(=O)[C@H](CCCNC(=N)N)NC(=O)[C@@H](CCCNC(=N)N)NC(=O)[C@@H](CCCNC(=N)N)NC(=O)[C@@H](C(c2ccccc2)c2ccccc2)NC(=O)[C@H](Cc2c[nH]c3ccccc23)NC(=O)[C@@H](C(c2ccccc2)c2ccccc2)NC1=O  biofilm reduction (MRSA ATCC BAA-1556; MIC, 24 h, pre-formed biofilm): 41 to 49%
C=C1CNCC2Nc3c(F)cc(Br)cc3C12CCNS(=O)(=O)c1ccc(Cl)cc1 (stereo not shown)  minimum resensitizing concentration (MRSA ATCC BAA-44; with: amoxicillin/clavulanic acid): 4 µg/mL
CC1C=CC=CC(C)C2C=CC3CC(C)(O)C(Cl)C(C)C3C2C(=O)C(Cl)(Cl)C(=O)C(C)C(=O)O1 (stereo not shown)  highest MIC (MSSA and MRSA clinical isolates; 180 isolates): 0.2 mg/L
NCC(=O)N1CCN(c2cc3c(cc2F)c(=O)c(C(=O)O)cn3C2CC2)CC1  MIC (microbial growth, broth dilution; NEWMAN): 5 µM (≈ 1.94 µg/mL)
CC[C@H](C)[C@H](NC(=O)[C@H](CC1CCCCC1)NC(=O)[C@@H](NC(=O)[C@@H](N)CCCN)c1ccccc1)C(=O)N[C@H](Cc1ccccc1)C(=O)N[C@@H](Cc1cn(Cc2ccccc2)cn1)C(N)=O  IC50 (bacterial growth; ATCC 29213): > 20 mg/L
CC(C)[C@H]1NC(=O)[C@H](Cc2ccccc2)NC(=O)[C@@H](C(C)C)NC(=O)[C@@H](C)NC(=O)[C@H](CO)NC(=O)[C@@H](Cc2c[nH]c3ccccc23)NC(=O)[C@@H](CO)NC1=O  MIC90 (broth dilution): > 50 µM
COc1c(C)c(OS(=O)(=O)c2ccccc2)c(C)c(O)c1C(=O)/C=C/c1ccccc1  MBC (microbial killing, broth dilution; ATCC25923): > 5000 mg/L
CC(=O)N[C@@H](CCCCN)C(=O)N1CCC[C@H]1C(=O)N[C@H](C(=O)N[C@@H](Cc1ccccc1)C(=O)N[C@@H](CCC(N)=O)C(=O)N[C@@H](Cc1ccccc1)C(=O)N[C@@H](CC(C)C)C(=O)N[C@@H](Cc1ccccc1)C(=O)N[C@@H](Cc1c[nH]cn1)C(=O)N[C@@H](CCC(=O)O)C(N)=O)C(C)C  PI-permeable cells (flow cytometry; USA300, hydrogel; concentration not given, 4 h, pH 5.5, 37 °C): 30.2%
O=C(Oc1cccccc1=O)c1cccc(Cl)c1  MIC80 (microbial growth, broth dilution; ATCC29213): 18.2 µM (≈ 4.74 µg/mL)
CC(C)c1ccc2c(c1)CCC1C(C)(CN(CC(O)C[N+](C)(C)C)CC(O)C[N+](C)(C)C)CCCC21C (stereo not shown)  inhibition zone (microbial growth, disc diffusion; ATCC29213; 125 µg/disc, 24 h): 16 mm
C=CS(=O)(=O)NCCCCCCCCCCOCc1cn(CCCCCCCCCCNS(=O)(=O)C=C)nn1  IC50 (growth, turbidity OD600; 24 h): > 100 µM
CC(CCCOC(=O)CCC[N+](C)(C)C)C1CCC2C3C(OC(=O)CCC[N+](C)(C)C)CC4CC(OC(=O)CCC[N+](C)(C)C)CCC4(C)C3CC(OC(=O)CCC[N+](C)(C)C)C12C (stereo not shown)  inhibition zone (microbial growth, disc diffusion; ATCC29213; 31.2 µg/disc, 24 h): 10 mm
C=C(C)C(=O)NCCCCCCCCOCc1cn(CCCCCCCCNC(=O)C(=C)C)nn1  IC50 (growth, turbidity OD600; 24 h): > 100 µM
CC(C)C1=CC2=CCC3C(C)(C(=O)OCCC[N+](C)(C)C)CCCC3(C)C2CC1 (stereo not shown)  inhibition zone (microbial growth, disc diffusion; ATCC29213; 31.2 µg/disc, 24 h): 15 mm
C=CC(=O)NCCCCCCCCCCOCc1cn(CCCCCCCCCCNC(=O)C=C)nn1  IC50 (growth, turbidity OD600; 24 h): > 100 µM
CC(CCCOC(=O)CCC[N+](C)(C)C)C1CCC2C3CCC4CC(OC(=O)CCC[N+](C)(C)C)CCC4(C)C3CC(OC(=O)CCC[N+](C)(C)C)C12C (stereo not shown)  inhibition zone (microbial growth, disc diffusion; ATCC29213; 31.2 µg/disc, 24 h): 20 mm
C=CS(=O)(=O)NCCCCCCCCOCc1cn(CCCCCCCCNS(=O)(=O)C=C)n[n+]1C  IC50 (growth, turbidity OD600; 24 h): > 100 µM
